Results of several laboratories.
Numbered parts are unrelated; each lists some results of a single study.

Block 1
Target: Histone acetyltransferase KAT6A, winged helix 1, GST fusion (KAT6A, Homo sapiens, UniProt Q92794, residues 1-85)
Technique: protein binding microarray
Molecule type: double-stranded DNA, one strand shown
Sample: in vitro
Tested at: not given
Notes: 8-mer, flanks averaged, mean of 2 arrays, mostly near background
Relative to: not given
Reading: higher = stronger binding
Target sequence (chain): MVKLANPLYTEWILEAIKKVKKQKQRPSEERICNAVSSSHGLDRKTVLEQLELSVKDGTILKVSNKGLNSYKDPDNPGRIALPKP
The E-score of `GATACGGC` is reported as 0.377.
`CATGCCCA` has an E-score of -0.204.
For `ACATCGCG`, the E-score was 0.301.
`AAGGAATC` gave an E-score of -0.0942.
`CCGGGACG` has an E-score of 0.322.

Block 2
Target: RING finger protein unkempt homolog, zinc fingers 1-6, SBP tag (UNK, Homo sapiens, UniProt Q9C0B0, residues 30-357)
Sequence of UniProt Q9C0B0 (30-357, looked up): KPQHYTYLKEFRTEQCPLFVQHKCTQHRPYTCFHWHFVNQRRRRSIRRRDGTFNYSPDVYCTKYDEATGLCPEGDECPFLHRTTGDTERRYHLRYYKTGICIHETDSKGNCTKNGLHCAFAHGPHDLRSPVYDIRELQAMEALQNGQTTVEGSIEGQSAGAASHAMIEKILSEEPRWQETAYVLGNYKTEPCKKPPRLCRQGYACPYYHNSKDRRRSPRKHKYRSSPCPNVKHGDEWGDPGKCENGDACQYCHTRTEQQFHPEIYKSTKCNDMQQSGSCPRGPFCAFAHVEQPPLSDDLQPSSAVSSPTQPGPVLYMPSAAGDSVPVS
Technique: RNA Bind-n-Seq
Molecule type: RNA
Sample: in vitro
Tested at: 100 nM
Notes: RNA with constant flanks, vertebrate orthologous sites, ends assumed
Relative to: input RNA pool
Reading: higher = stronger binding
`GGGAGUUCUACAGUCCGACGAUCUAUUUUCUUAUUUUAGGUAUCACUGCCCAAUGCCUAAGAUCUUUUAUGUCCAGCUGACUGUAGGAAAUAAUGAAUUUUUUGGGGAAGGAAAGACUCGACAAGCUGCUAGACACAAUGCUGCAACAGAGGAUUGAGCAUCA` gave a bound/input enrichment of 1.41 ratio.
For `GGGAGUUCUACAGUCCGACGAUCGAAACAAUGGCUCCUACUCUAUUACAAAGACAAGAAACAGUCCCACAAGUUAAUAAUAGAUAGCUAUUUUUGAAAUUCAAAUAUUUAAAUUUUGUAAAUCAGCUGUUUGGGAUGUCAUGUCAACAGAGGAUUGAGCAUCA`, the bound/input enrichment was 0.723 ratio.
`GGGAGUUCUACAGUCCGACGAUCCACUAAUCAAUUUAAUUGUAUUCUGAAUAAAGUGUAACAUUGUGUAGCUUUUGUAUAAAACCAGGAAUUGGAAAUGGUCCAAAUACAUUCUUUUAAAUGCUUACAUAAGCAGAGAAACUGCAACAGAGGAUUGAGCAUCA` has a bound/input enrichment of 0.539 ratio.
`GGGAGUUCUACAGUCCGACGAUCCUCUAUGGGCCUCGCAGAGUUGAAAUAAUGGAAGAGGAAAGUGAACAGUAAUCUUCAUUUUAGUAUUUAUGCUUAGGUGUGAAAUAAAUGUUAUUUGUUGAUCAUUUCUAUAAUCCAGAGCAACAGAGGAUUGAGCAUCA` gave a bound/input enrichment of 0.457 ratio.

Single results of other studies
For `PhoQ, residues 284 288 289 292 302 303 NLAAMI`, the fold induction was 11.1 (PhoP, residues 12 14 15 18 19 TTLRV (Escherichia coli, UniProt P23836); Sort-seq, item: YFP reporter; E. coli; PhoQ-PhoP variant library, together with: 10 µM Mg2+; relative to: high Mg2+ state, higher = stronger signaling).
For `SNARRSLNFGGST`, “score relative, wild type, peptide” read 0 (human cyclin B2; cyclin docking binding, deep mutational scanning; peptide, yeast cyclin B2-Cln2 system; direction not given).

Excerpt of the above (block 2):
`GGGAGUUCUACAGUCCGACGAUCCUCUAUGGGCCUCGCAGAGUUGAAAUAAUGGAAGAGGAAAGUGAACAGUAAUCUUCAUUUUAGUAUUUAUGCUUAGGUGUGAAAUAAAUGUUAUUUGUUGAUCAUUUCUAUAAUCCAGAGCAACAGAGGAUUGAGCAUCA` gave a bound/input enrichment of 0.457 ratio.
